Assay results of several laboratories.
Numbered parts are unrelated; each lists some results of a single study.

Sample 1
Target: Sal-like protein 4, full length isoform B (SALL4, Homo sapiens, UniProt Q9UJQ4-2, residues 1-616)
Method: universal PBM
Form: double-stranded DNA, one strand shown
Sample: in vitro
Concentration: not given
Notes: 8-mer, flanks averaged, mean of replicates
Reading: higher = stronger binding
Construct (chain): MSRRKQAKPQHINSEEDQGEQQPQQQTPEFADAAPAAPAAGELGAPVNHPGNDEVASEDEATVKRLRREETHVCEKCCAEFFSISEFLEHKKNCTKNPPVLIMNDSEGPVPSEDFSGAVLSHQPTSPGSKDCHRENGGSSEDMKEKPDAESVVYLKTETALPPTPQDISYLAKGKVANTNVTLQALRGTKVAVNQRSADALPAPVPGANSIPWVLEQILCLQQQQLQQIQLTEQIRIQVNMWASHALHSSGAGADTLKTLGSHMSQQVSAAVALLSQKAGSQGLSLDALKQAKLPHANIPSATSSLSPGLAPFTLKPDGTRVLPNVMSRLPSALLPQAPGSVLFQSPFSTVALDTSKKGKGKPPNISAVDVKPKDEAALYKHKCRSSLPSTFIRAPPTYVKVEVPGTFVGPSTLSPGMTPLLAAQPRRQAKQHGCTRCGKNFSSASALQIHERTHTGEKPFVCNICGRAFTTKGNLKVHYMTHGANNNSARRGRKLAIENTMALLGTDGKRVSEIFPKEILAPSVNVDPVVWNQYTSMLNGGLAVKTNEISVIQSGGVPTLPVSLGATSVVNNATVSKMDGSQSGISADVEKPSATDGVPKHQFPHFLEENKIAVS
Strand | E-score
AACGGTCA | -0.0825
CTTGACTA | -0.0447
GATTGGCA | -0.0688
ACCGAACT | -0.239
CTACAAAA | 0.0946
ACAATGCA | 0.229
GGGTATGA | 0.0925
CAACGTAG | 0.0678

Sample 2
Target: RNA binding protein fox-1 homolog 2, RRM domain, GST-SBP tag (RBFOX2, Homo sapiens, UniProt O43251-10, residues 100-194)
Method: RNA Bind-n-Seq
Form: RNA
Sample: in vitro
Concentration: 365 nM
Notes: natural RNA segment, single round, ends assumed
Baseline: no-protein control
Reading: higher = stronger binding
Shared flanks, not repeated: GGGAGUUCUACAGUCCGACGAUC … UGGAAUUCUCGGGUGCCAA
Residues (chain): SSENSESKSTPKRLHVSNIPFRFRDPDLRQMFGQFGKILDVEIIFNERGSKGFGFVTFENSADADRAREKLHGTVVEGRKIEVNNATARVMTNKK
Strand | RBNS enrichment (R)
CUGUAAUCCUUAAACUCGAUGUGGUAAGUAGGAAGCAAGAAUUUAUCCUGUGUUUUCAGGCAGCAGUAUGCUUACUUUAAUCUCAUUCGUUCUGUGGCUAGGAUUGCUAG | 0.276
AAGAUUGUCCCGCCUCUGCCAAUCCCCGCCGUCCUUCCAGCCCACGACCUGCCGCGCCGAGGAGCGGCAUCUGUCCCGUUUCCCGAUUGGGUCUGUCGUCUCUCUCCGCC | 0.462
CCUGCCAUCCCCCCUCCAUUGCUUGUUCCAGCAUCUUGGUGAAAGGGGCAUCAGCUCUGGUGUCCCUGAGAGACGAGAAGCCUGUGGGAACGACAGAAGAACAUGGCAUU | 0.384
GCUUCUGCCCUAUGUUUCUGUACUUCUAUUUGAACUGGAUAACAGAGAGACAAUCUAAACAUUCUCUUAGGCUGCAGAUAAGAGAAGUAGGCUCCAUUCCAAAGUGGGAA | 0.539
GAUCUAGUAAAACAAACAAGUUUUCAAAACAAGAGGAAGUCUGGAGUCUGCCGCUAAUUAAUCUUAUUUAUUGCAGCUUAUAAAUUGUGCAAUCUCUAUUUCAUUAUCCU | 0.501
CUUAUGCUGUCCCGGCCUCGCCAGCCCUCUGGGGCAUUGUGGGAGAUGCCUGCCAGGAAUGAGCAAGCUCUGUUGCUCGGGAGCCUCUUGUCACCUUCUUGGACUUAUUC | 2.4
GCGCGGACUCUAGCCAGGCAGGGACACGUCUGGUGCCAGAACACGCAGCUGCCCACACGCAAGGUCAUGGCCCCAGCGGCCCCGGCACAUGGAGUGGUUCAGCGCGGCCU | 0.261
AUACUAUGUAUACUUGAGAAUCUUUAAGCAGCAAAUUAGUCAUUUGCAUGAAGCUCCAGGAUUACAGUAAACUAAAUCAGUGCAAAAUAAAGUUUAUUUUAUAAAAGAAA | 0.489

Sample 3
Target: Eukaryotic initiation factor 4A-I (EIF4A1, Homo sapiens, UniProt P60842, residues 1-406, full length assumed)
UniProt P60842, sequence (whole entry, looked up): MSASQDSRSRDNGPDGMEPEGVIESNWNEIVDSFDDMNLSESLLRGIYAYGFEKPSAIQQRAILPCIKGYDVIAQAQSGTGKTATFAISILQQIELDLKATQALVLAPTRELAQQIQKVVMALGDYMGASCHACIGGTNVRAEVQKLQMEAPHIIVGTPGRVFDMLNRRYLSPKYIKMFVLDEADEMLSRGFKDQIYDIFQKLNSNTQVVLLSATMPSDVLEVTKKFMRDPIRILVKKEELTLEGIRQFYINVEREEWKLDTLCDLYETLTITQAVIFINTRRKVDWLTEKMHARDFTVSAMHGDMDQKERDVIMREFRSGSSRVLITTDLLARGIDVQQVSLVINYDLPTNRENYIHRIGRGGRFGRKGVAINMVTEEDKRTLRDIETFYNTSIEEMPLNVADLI
Method: RNA Bind-n-Seq
Form: RNA
Sample: in vitro
Concentration: 90 pmol
Notes: 4-mer, random 30-nt RNA, single round
With: 3 µM DMDA-PatA, 2 mM ADP, 2 mM phosphate
Baseline: input library
Reading: higher = stronger binding
Strand | 4-mer enrichment
AUCC | 0.618 fold
UUAC | 0.689 fold
CUAA | 0.686 fold
UUAU | 1.07 fold
CCGC | 0.689 fold
AUGU | 1.15 fold
UCAA | 0.821 fold
UCUC | 0.574 fold

Further values, each from its own experiment
Molecule | target | observed | form | concentration | measurement | value
QTDNQLAVF | HLA class I histocompatibility antigen, A alpha chain, allele A*80:01 (Homo sapiens, UniProt P04439) | peptide-MHC binding | peptide | concentration not given | binding | inactive

A few entries again (sample 1):
Strand | E-score
ACAATGCA | 0.229
